Measurements collected from several papers.
Protocols differ between the studies behind these lines. Several values in a cell are separate wells, animals, samples, runs or records. Numbers after ± are the reported error. In brackets after ≈: the same amount, converted by molar mass.

| Compound | tested on | test | test system | setting | scale | measurement | result |
| --- | --- | --- | --- | --- | --- | --- | --- |
| CCCc1nn(C)c2c(=O)[nH]c(-c3cc(S(=O)(=O)N4CCN(C)CC4)ccc3OCC)nc12 | Cryptosporidium parvum | parasite growth, immunofluorescence imaging | HCT-8, Iowa | 2 µM |  | inhibition | -17.2% and 24.2% |
| Cc1cc(OC(C)C)ccc1C(=O)C(C)(C)NC(=O)c1sccc1C | Botrytis cinerea | appressorium formation | B05.10 | 10 µg/mL |  | inhibition | 100% |
| O=C(O)C(=O)CO |  | binding, equilibrium dialysis LC-MS |  | 5 µM, thermostabilized A2AR-BRIL construct | reference: no-protein control, direction not given | z-scored log2 fold change | -0.881 |
| CNC(C)C1CCC(N)C(OC2C(N)CC(N)C(OC3OCC(C)(O)C(NC)C3O)C2O)O1 (stereo not drawn) | Salmonella enterica serovar Derby | broth microdilution | clinical isolate RKI-No 270/14 |  |  | MIC | 1 µg/mL (≈ 2.09 µM) |
| COc1ccc(-c2nc(N3CCOCC3)c3sc(CN(C)c4ncc(C(=O)NO)cn4)cc3n2)cn1 | human alphaherpesvirus 1 |  | primary human fibroblasts, K26 GFP |  | reference: CC50 over IC50 | selectivity index | < 0.02 |
| CC(C)n1ncc2c(C(=O)NCC3(C)CNC3)cc(C3CC3)nc21 | Enterovirus D68 | cytopathic effect | RD, US/IL/14-18952 | 1500 nM |  | cell protection | 97.6% and 98.9% and 98.6% |
| Cc1ccc(NC(=O)N2Cc3[nH]cnc3C[C@H]2c2nc(-c3ccc4c(c3)OCO4)no2)cc1 | Caenorhabditis elegans |  | N2 | 100 µM |  | median lifespan | 17 days |
| O=C(O)CCCC(=O)O | Cryptosporidium parvum | image-based | HCT-8 | 1 mM, 24 h post-infection | reference: PBS | relative parasite number | 1.01 ± 0.153 |
| O=c1c(-c2nc3ccccc3s2)cc2c(n1NS(=O)(=O)c1ccc(Cl)cc1)CCCC2 | Coxsackievirus B4 | viral replication, plaque reduction | BGM cells | non-toxic concentration |  | reduction | 0% |
| CC1(C)S[C@@H]2[C@H](NC(=O)[C@H](N)c3ccccc3)C(=O)N2[C@H]1C(=O)O | Salmonella enterica serovar Choleraesuis | broth microdilution | clinical isolate RKI-No 532/14-1 |  |  | MIC | > 16 µg/mL |
| CCCCCCc1ccc(Oc2ccccc2C)c(O)c1 | Mycobacterium tuberculosis |  | mouse, rapid infection model, spleen | oral, 200 mg/kg once daily, co-solvent formulation |  | CFU reduction | 0.99 log10 CFU |
| Cc1cc(C)c2cc(C(=O)NC3CCCCCCC3)[nH]c2c1 | Mycobacterium tuberculosis |  | THP-1 |  | reference: THP-1 IC50 over MIC | selectivity index | > 764 |
| COC(=O)[C@H](Cc1c[nH]c2ccccc12)NCc1cc2ccccc2nc1OC | Pseudomonas aeruginosa |  |  | 2 µg/mL, without pentamidine | reference: control | growth | 95.6% |
| CC(C)CC(=O)NCC(=O)O |  | binding, equilibrium dialysis LC-MS |  | 5 µM, thermostabilized A2AR-BRIL construct | reference: no-protein control, direction not given | z-scored log2 fold change | -1.03 |
| CC(=Nc1ccc(N=Cc2cnccn2)cc1)N(C)C | Necator americanus |  | infected hamster | oral, single dose |  | curative dose | 25 mg/kg |
| COC[C@H]1O[C@@H]2O[C@@H]3[C@@H](OC)[C@@H](OC)[C@@H](O[C@@H]4[C@@H](OC)[C@@H](OC)[C@@H](O[C@@H]5[C@@H](OC)[C@@H](OC)[C@@H](O[C@@H]6[C@@H](OC)[C@@H](OC)[C@@H](O[C@@H]7[C@@H](OC)[C@@H](OC)[C@@H](O[C@@H]1[C@@H](OC)[C@H]2OC)O[C@@H]7COC)O[C@@H]6COC)O[C@@H]5COC)O[C@@H]4COC)O[C@@H]3COC | Escherichia coli | LuxR reporter, agonist | DH5α sensor strain | 200 µM |  | bioluminescence | 816 ± 41 RLU |
| Cc1cccc(C)c1N(CC(=O)Nc1ccc(-c2ncon2)cc1)C(=O)C1CCS(=O)(=O)CC1 | human alphaherpesvirus 1 | live-cell GFP imaging | primary human keratinocytes, K26 GFP |  |  | IC50 | 240 nM |
| O=C(O)[C@@H]1CCCCN1 | Cryptosporidium parvum | image-based | HCT-8 | 1 mM, 24 h post-infection | reference: PBS | relative parasite number | 1.02 ± 0.095 |
| N=C(N)c1ccc(OCc2ccc(Br)cc2COc2ccc(C(=N)N)cc2)cc1 | Escherichia coli | checkerboard | BW25113 | synergy at FICI ≤0.5, unit not given, with: novobiocin | lower = stronger synergy | FICI | ≤ 0.039 |
| Cc1nc(N(C)C(=O)Cc2ccc(-c3ccccn3)cc2)sc1S(N)(=O)=O | human alphaherpesvirus 1 | viral replication, GFP signal | K26 GFP, 3D skin equivalent, air-liquid | 48 h |  | IC50 | 190 nM |
| CN[C@H](CC(C)C)C(=O)N[C@H]1C(=O)N[C@@H](CC(N)=O)C(=O)N[C@H]2C(=O)N[C@H]3C(=O)N[C@H](C(=O)N[C@H](C(=O)O)c4cc(O)cc(O)c4-c4cc3ccc4O)[C@H](O)c3ccc(c(Cl)c3)Oc3cc2cc(c3O[C@@H]2O[C@H](CO)[C@@H](O)[C@H](O)[C@H]2O[C@H]2C[C@](C)(N)[C@H](O)[C@H](C)O2)Oc2ccc(cc2Cl)[C@H]1O | coagulase-negative staphylococci |  |  | concentration not given, MIC ≤2 µg/mL |  | isolates inhibited | 75.4% |

| Compound | tested on | test | test system | setting | scale | measurement | result |
| --- | --- | --- | --- | --- | --- | --- | --- |
| O=C(Nc1ccc([N+](=O)[O-])cc1Cl)c1cc(Cl)ccc1O | human alphaherpesvirus 1 |  | primary human keratinocytes, K26 GFP |  | reference: CC50 over IC50 | selectivity index | 2.47 |
| CCCCCCc1ccc(Oc2ccccc2Cl)c(O)c1 | Mycobacterium tuberculosis |  | mouse, rapid infection model, spleen | 25 mg/kg twice daily, SMEDDS formulation, with: rifampicin 10 mg/kg | reference: rifampicin alone | additional CFU reduction | 1.4 log10 CFU |
| CCn1c(=O)c(-c2cc[nH]n2)cc2c(C)nc(N)nc21 | Coxsackievirus B4 | viral replication, RT-qPCR | HeLa, CVB4-7 | concentration not given, 20 h |  | viral RNA level | decreased |
| [N-]=[N+]=N[C@]1(CO)O[C@@H](n2ccc(N)nc2=O)[C@@H](F)[C@@H]1O | murine hepatitis virus | viral genome copies, RT-qPCR | DBT-9, A59 wild type |  |  | EC50 | 95 nM |
| N=C(N)c1ccc(OCc2ccccc2COc2ccc(C(=N)N)cc2)cc1 | Escherichia coli | checkerboard | mcr-1 polymyxin-resistant | concentration not given, 20 h, with: rifampicin |  | MIC of compound in combination | 25 µg/mL |
| CN(C)C(=N)NC(=N)N | NLRP3 inflammasome (mouse) |  | mouse BMDM | 10 µM |  | inhibition | 87.9% |
| O=C(/C=C\n1cnc(-c2cc(C(F)(F)F)cc(C(F)(F)F)c2)n1)NNc1ccccn1 | human alphaherpesvirus 1 | live-cell GFP imaging | primary human keratinocytes, K26 GFP |  |  | IC50 | 1760 nM |
| CCC(=O)O | Cryptosporidium parvum | image-based | HCT-8 | 1 mM, 24 h post-infection | reference: PBS | relative parasite number | 1.07 ± 0.158 |
| COC(=O)[C@@H](CCSC)NCc1cc2ccccc2nc1SC | Pseudomonas aeruginosa |  |  | 64 µg/mL, with: pentamidine 100 µM | reference: control | growth | 65.4% |
| N=C(N)c1ccc(OCc2cc(Br)cc(COc3ccc(C(=N)N)cc3)c2)cc1 | Escherichia coli |  | ATCC 25922 | concentration not given, with: rifampicin |  | MIC in combination | 6.25 µg/mL |
| COc1ccnc(C(=O)O)c1O | Daphnia magna | immobilisation, semi-static water exposure |  | 48 h |  | EC50 | > 9.5 µg/mL |
| CC1(C)CC(=O)c2c(C(F)(F)F)nn(-c3ccc(C(N)=O)c(N[C@H]4CC[C@H](O)CC4)c3)c2C1 | human alphaherpesvirus 1 | live-cell GFP imaging | primary human keratinocytes, K26 GFP |  |  | IC50 | 80 nM |
| CC(C)Nc1nc2cc(Cl)c(Cl)cc2n1[C@H]1O[C@@H](CO)[C@H](O)[C@@H]1O | human betaherpesvirus 5 |  | human CMV patients | dose not given, week 8, AURORA exposure-response |  | confirmed CMV viremia clearance | 74.8% |
| Nc1nc(-c2ccccc2)nc2[nH]nc(Nc3ccc(C(F)(F)F)cc3)c12 | coxsackievirus B3 |  | 31-1-93, NMRI mice, CVB3 chronic myocarditis | oral, 100 mg/kg twice daily, day 9, dosed days 3 to 10, score scale 0 to 7 | direction not given | clinical score | 1.3 |
| C=CC(=O)N1CC/C(=C\c2ccc(F)c([N+](=O)[O-])c2)C(=O)/C(=C/c2ccc(F)c([N+](=O)[O-])c2)C1 | human alphaherpesvirus 1 | live-cell GFP imaging | primary human fibroblasts, K26 GFP |  |  | IC50 | 3050 nM |
| COC(=O)[C@H](Cc1c[nH]c2ccccc12)NCc1cc2ccccc2nc1SC | Pseudomonas aeruginosa |  |  | 2 µg/mL, without pentamidine | reference: control | growth | 100% |
| CC(=O)NC[C@H]1CN(c2ccc(N3CCOCC3)c(F)c2)C(=O)O1 | Staphylococcus aureus |  | MRSA, 10 isolates | pH 5.5 |  | MIC50 | 1 µg/mL (≈ 2.96 µM) |
| COc1ccc(NC(=O)N2CCCCN3[C@H](CN(C)C)[C@H](c4ccc(C#Cc5ccccc5)cc4)[C@@H]3C2)cc1 | Cryptosporidium parvum | parasite growth | Iowa (Sterling) |  |  | EC50 | 8 nM |
| CC1=C[C@H](O/C=C2/C(=O)O[C@@H]3c4ccccc4C[C@H]23)OC1=O (racemic) | Striga hermonthica | stimulant | seeds | 10 nM |  | germination rate | 54.2% and 82.6% and 69.2% and 87.5% and 40% and 75% and 75.9% |
| CN[C@H](CC(C)C)C(=O)N[C@H]1C(=O)N[C@@H](CC(N)=O)C(=O)N[C@H]2C(=O)N[C@H]3C(=O)N[C@H](C(=O)N[C@H](C(=O)O)c4cc(O)cc(O)c4-c4cc3ccc4O)[C@H](O)c3ccc(c(Cl)c3)Oc3cc2cc(c3O[C@@H]2O[C@H](CO)[C@@H](O)[C@H](O)[C@H]2O[C@H]2C[C@](C)(N)[C@H](O)[C@H](C)O2)Oc2ccc(cc2Cl)[C@H]1O | Staphylococcus aureus |  | MRSA, 10 isolates | pH 8.5 |  | MIC50 | 2 µg/mL (≈ 1.38 µM) |
| CC(C)c1cnn2c(NCc3ccccc3-n3cccn3)nc(OC3CCCNC3)nc12 (stereo not drawn) | human alphaherpesvirus 1 | viral replication, GFP live imaging | primary human fibroblasts, K26 GFP-expressing |  |  | IC50 | 990 nM |

Repeated from above:
| Compound | tested on | test | test system | setting | scale | measurement | result |
| --- | --- | --- | --- | --- | --- | --- | --- |
| COC(=O)[C@@H](CCSC)NCc1cc2ccccc2nc1SC | Pseudomonas aeruginosa |  |  | 64 µg/mL, with: pentamidine 100 µM | reference: control | growth | 65.4% |
| N=C(N)c1ccc(OCc2cc(Br)cc(COc3ccc(C(=N)N)cc3)c2)cc1 | Escherichia coli |  | ATCC 25922 | concentration not given, with: rifampicin |  | MIC in combination | 6.25 µg/mL |
| COc1ccnc(C(=O)O)c1O | Daphnia magna | immobilisation, semi-static water exposure |  | 48 h |  | EC50 | > 9.5 µg/mL |
| CC1(C)CC(=O)c2c(C(F)(F)F)nn(-c3ccc(C(N)=O)c(N[C@H]4CC[C@H](O)CC4)c3)c2C1 | human alphaherpesvirus 1 | live-cell GFP imaging | primary human keratinocytes, K26 GFP |  |  | IC50 | 80 nM |
| CC(C)Nc1nc2cc(Cl)c(Cl)cc2n1[C@H]1O[C@@H](CO)[C@H](O)[C@@H]1O | human betaherpesvirus 5 |  | human CMV patients | dose not given, week 8, AURORA exposure-response |  | confirmed CMV viremia clearance | 74.8% |
| Nc1nc(-c2ccccc2)nc2[nH]nc(Nc3ccc(C(F)(F)F)cc3)c12 | coxsackievirus B3 |  | 31-1-93, NMRI mice, CVB3 chronic myocarditis | oral, 100 mg/kg twice daily, day 9, dosed days 3 to 10, score scale 0 to 7 | direction not given | clinical score | 1.3 |
